Measured values gathered from unrelated publications.
Numbered parts are unrelated; each lists some results of a single study.

Study 1
Target: Ras GTPase-activating protein-binding protein 1, RRM domain (G3BP1, Homo sapiens, UniProt Q13283)
Sequence of UniProt Q13283 (whole entry, looked up): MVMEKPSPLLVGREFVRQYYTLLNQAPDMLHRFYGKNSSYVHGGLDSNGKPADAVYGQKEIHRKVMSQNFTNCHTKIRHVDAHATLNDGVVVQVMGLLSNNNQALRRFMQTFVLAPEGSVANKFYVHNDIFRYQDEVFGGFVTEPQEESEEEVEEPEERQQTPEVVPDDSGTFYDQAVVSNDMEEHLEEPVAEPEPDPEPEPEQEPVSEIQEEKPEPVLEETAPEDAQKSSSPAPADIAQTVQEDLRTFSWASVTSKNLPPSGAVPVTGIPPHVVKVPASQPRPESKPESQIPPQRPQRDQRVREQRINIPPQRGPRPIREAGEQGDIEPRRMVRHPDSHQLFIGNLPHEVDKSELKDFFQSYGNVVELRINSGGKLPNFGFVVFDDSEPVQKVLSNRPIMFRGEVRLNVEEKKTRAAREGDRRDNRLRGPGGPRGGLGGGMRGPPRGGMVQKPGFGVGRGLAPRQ
Technique: RNA Bind-n-Seq
Form: RNA
Matrix: in vitro
Concentration: 1 µM
Notes: whole 134-nt RNA, ends assumed
Added: 150 mM KCl
Baseline: input library
Reading: higher = stronger binding
Shared flanks, not repeated: GGGAGUUCUACAGUCCGACGAUC … UGGAAUUCUCGGGUGUCAAGG
Strand	log2 enrichment
AAGUCCUGUGCUACACAUCGUAUGUACCGAAUCGGCCCGGGGCCCGGGGCCCGGGGAAAGUAUUAUGUUACGCCGUUCGGAUCUGCACUU	-1.48
AAGUCCUGUGCUACACAUCGUAUGUACCGAAUCGGGGAAAAGGGAAAAGGAAAAGGGAAAGUAUUAUGUUACGCCGUUCGGAUCUGCACU	-0.162
CCUGUGCUACACAUCGUAUGUACCGAAUCGGGGUUUUUUGGUUUUUUGGGUUUUUUGGGGAAAGUAUUAUGUUACGCCGUUCGGAUCUGC	-0.293
UCAAGUCCUGUGCUACACAUCGUAUGUACCGAAUCGGCCCGGGGCCCGGCCCGGGAAAGUAUUAUGUUACGCCGUUCGGAUCUGCACUUC	-0.528
GUCCUGUGCUACACAUCGUAUGUACCGAAUCGGGAAAAAAAGGGUUUUUGGGUUUGGGAAAGUAUUAUGUUACGCCGUUCGGAUCUGCAC	0.0423
UCUCAGCACCCUCGUGAAACUGGACAAGAAGCCAGUGGAGACCAACGGUCCUGAUGCCAAUCACGAGUACAGUACAAGCAGCCAGCAUAU	-0.0706
UUCCCUGUACCGGCAGAGUUCACAAACACAUUUGAAGAGGCUUUUUCUCAGGAUUCUUAACCUUCCCAAAGGAAGUCCCAUGGAUGGGUU	-0.213
CCUCAAGUCCUGUGCUACACAUCGUAUGUACCGAAUCGGAAAGGUGGAAAGGAAAGUAUUAUGUUACGCCGUUCGGAUCUGCACUUCCAG	-0.0954
CACAGACAACACGCACCCACACAGACACAGAGGGAAGGGGUUGGGAUGGGGACAGGGUGCACAGCAGGGCGGGGUAGCACCCCAGCCCCU	-0.31
GUCCUGUGCUACACAUCGUAUGUACCGAAUCAAACCCAAAUUUUUAAACCCCCCCAAAAAAGUAUUAUGUUACGCCGUUCGGAUCUGCAC	-0.195

Study 2
Target: Prothrombin, mature alpha-thrombin (F2, Homo sapiens, UniProt P00734)
Technique: aptamer microarray, sandwich
Form: DNA with 2'F-ANA
Matrix: in vitro
Concentration: 200 nM
Notes: whole 15-mer aptamer, many near background
Added: Cy3 exosite-II aptamer, 400 nM
Reading: higher = stronger binding
Strand: GGTTGGTGTGGTTGG
Modification	mean fluorescence intensity
2'F-ANA at 1 6 8 9 10 11 13 15	53.9 a.u.
2'F-ANA at 1 2 4 6 8 9 11 12 13	148 a.u.
2'F-ANA at 1 3 4 5 8 10 11 12 13 14 15	49 a.u.
2'F-ANA at 8 14	227 a.u.
2'F-ANA at 4 7 9 12 13 14	100 a.u.
2'F-ANA at 1 2 3 6 7 9 10 11 12 13	108 a.u.
2'F-ANA at 2 3 6 8 9 10 11 12 13	328 a.u.
2'F-ANA at 1 4 5 11 13 14 15	61 a.u.
2'F-ANA at 1 2 3 4 5 8 9 10 11 12 15	209 a.u.
2'F-ANA at 2 4 7 8 10 11 14	64.2 a.u.
2'F-ANA at 2 3 5 8 11	99.3 a.u.
2'F-ANA at 2 3 5 7 8 9 11 12 14 15	65.1 a.u.
2'F-ANA at 3 4 5 8 9 11 13 15	66.4 a.u.
2'F-ANA at 2 6 7 14 15	138 a.u.
2'F-ANA at 1 3 5 7 14 15	46.8 a.u.
2'F-ANA at 2 3 5 13 14 15	49.4 a.u.
2'F-ANA at 1 2 3 6 8 11 15	192 a.u.
2'F-ANA at 2 4 9 11 12 15	455 a.u.
2'F-ANA at 1 2 4 12	340 a.u.
2'F-ANA at 1 4 8 12 13	258 a.u.
2'F-ANA at 3 4 6 8 9 11 12 15	695 a.u.
2'F-ANA at 1 2 5 7 11 12 14	43.5 a.u.
2'F-ANA at 2 5 6 9 10 11 14 15	49.4 a.u.
2'F-ANA at 2 3 6 7 8 10 11 12 15	343 a.u.
2'F-ANA at 1 2 3 6 8 12 13 15	387 a.u.

Study 3
Target: RING finger protein unkempt homolog, zinc fingers 1-6, GST-SBP tag (UNK, Homo sapiens, UniProt Q9C0B0, residues 30-357)
Technique: RNA Bind-n-Seq
Form: RNA
Matrix: in vitro
Concentration: not given
Notes: RNA with constant flanks, ends assumed
Baseline: input RNA pool
Reading: higher = stronger binding
Shared flanks, not repeated: GGGAGUUCUACAGUCCGACGAUC … CAACAGAGGAUUGAGCAUCA
Target sequence (chain): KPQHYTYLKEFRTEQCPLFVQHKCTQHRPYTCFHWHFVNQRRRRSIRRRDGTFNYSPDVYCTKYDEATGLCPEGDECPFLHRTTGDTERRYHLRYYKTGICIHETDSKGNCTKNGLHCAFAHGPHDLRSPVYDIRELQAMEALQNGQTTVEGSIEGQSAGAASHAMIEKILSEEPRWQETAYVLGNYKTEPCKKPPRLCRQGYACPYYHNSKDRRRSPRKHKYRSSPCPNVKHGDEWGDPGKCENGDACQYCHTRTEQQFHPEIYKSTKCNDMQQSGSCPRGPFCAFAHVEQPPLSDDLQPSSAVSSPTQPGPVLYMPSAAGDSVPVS
Strand	bound/input enrichment [ratio]
UUUCGGAACUAUAUCAUGGACUUCCAAGUUGGGAAGGAGUUUGAGGAAGAUCUGACAGGCACCGACGACCGCAAGUGCAUGACCACUGUGAGCUGGGAUGGUGACAAACUCCAGUGUGUG	0.131
UCCACGGAUGUUUAAUAUCAUCUCAGAUUCCCCAUCUCCUAUUGCUGCAAGAACACUGACAUCCGUGGCUAAAUCUGUGCAGAAUUUAGCAAAUCUUGUGGAAUUUGGAGCUAAGGAGCC	0.0717
AUUGUAAAUGAUUUGUAUCGUAUGAUUAAGGAUCUAAGGCACAAUAUUUGUCACUGUUCUAUCCGACUUUUUACUGAAAAUGAAUAAUGGUGUAAUGGUUCUCCUGGGGCUGUCACAUUU	0.14
GCUGGAUGAUACCAUAAUGUAUCAAGGAGCGUCCAUGGAUACAAGAUAAGAUGUGUACCUCCGCCGAAUACAGAGCUUUGGUAAUUACAUGAAUAAAAUUAAGAAAAUAGCCAUAUACAA	2.65
UUGUCGAAGACUCAACGAAAGACUCCAACCGUUAUUCAUAAACAUUACCAAAUACAUCGCAUCCGACAUUUUUACAUGAGAAAAGUCAAAUUUACUCAACAGAAUUACCAUGAUAGACUU	1.65
GCUGCCUCUAUCUUGUUUUUUGUUUUUUCUUCUGGGGGGGGUCUAGAACAGUGCCUGGCACACCGCCGGCGCUCAAUAAAUACUUGUUUGUUGAAUGUCUCCUCUCUCUUUCCACUCUGG	0.784
CUAUAUCUGAAACUUACAUUUGACCUCAUAGAGAAAGGCUAUCUAGUGUUAAAGAGCUCCCGCUACAAAGUAGUUCCUGUUUCGCUCUCAGAGGUUUAUUUACUCCAGUGCAAUAUGAAG	1.01
GCUCUGGGCUUUUCUGAUGUGGAUCACACCUAUGCUCAAAGAACUCAGCUCUUUGACACCUCCGUAAAUUUCUUUCCUGACAGCAUGACUCCUCCUAAAGGCAACCUGGUAGACCUCAUC	0.405

Study 4
Target: Histone acetyltransferase KAT6A, both winged helices, GST fusion (KAT6A, Homo sapiens, UniProt Q92794, residues 1-181)
Technique: protein binding microarray
Form: double-stranded DNA, one strand shown
Matrix: in vitro
Concentration: not given
Notes: 8-mer, flanks averaged, mean of 2 arrays, mostly near background
Baseline: not given
Reading: higher = stronger binding
Residues (chain): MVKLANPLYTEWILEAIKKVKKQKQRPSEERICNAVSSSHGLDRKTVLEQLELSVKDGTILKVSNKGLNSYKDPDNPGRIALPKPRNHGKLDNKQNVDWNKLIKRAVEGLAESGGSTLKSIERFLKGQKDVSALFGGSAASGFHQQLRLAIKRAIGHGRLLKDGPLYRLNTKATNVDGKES
Strand	E-score
GCCAAGAC	-0.094
CAATATCG	-0.0157
GCTGAGGA	0.0155
ATGTATGG	-0.0443
GCCTAGCC	0.0283
TAGTATCA	0.0638
AAGTGGAT	-0.2
GGGAGACC	0.0609
ACATGTAT	0.0692
AATGCATA	-0.0359
CCGGGGTC	0.182
TCCCTGCA	-0.159
ATTGTAGC	-0.0326
ATCTGGCG	-0.0173
TGCGGTAA	0.209
CAAATGTA	-0.104
AAAGAGTG	-0.145
GATGATTA	0.113
GTCTTCAA	-0.232
AGCTTATG	-0.121

Mixed results
Substance	target	assay	system	conditions	scale	measurement	result
PhoQ, residues 284 288 289 292 302 303 AGGLSV	PhoP, residues 12 14 15 18 19 VGHWL (Escherichia coli, UniProt P23836)	Sort-seq, item: YFP reporter	E. coli	PhoQ-PhoP variant library, added: 10 µM Mg2+	baseline: high Mg2+ state, higher = stronger signaling	fold induction	6.25
